Experimental data collected from several papers.
Lines come from different studies, so protocols differ. Numbers after ± are the reported error. In brackets after ≈: the same amount, converted by molar mass.

CNS(=O)(=O)Nc1nccc(Cc2c(C)c3ccc(Oc4ncccc4F)cc3oc2=O)c1F gave an IC50 of 0.713 µM (SNU-387; cell viability; 7 days).
The ΔTm of O=C(N/N=C/c1cc[n+](Cc2ccccc2)c2ccccc12)C(=O)N/N=C/c1cc[n+](Cc2ccccc2)c2ccccc12 is reported as 4.6 ± 0.4 °C (MYC parallel G4 DNA; FRET melting; 1 µM, DNA 0.2 µM).
For COC1CN([C@H]2CC[C@H]([C@@]3(C)Oc4c(Cl)cc(C(=O)NCc5c(SC)cc(C)[nH]c5=O)c(C)c4O3)CC2)C1, “log2 fold change” read 2.32 (RNA-seq, measured: TMEM108; human, whole blood; dose not given, 24 h; baseline: pretreatment baseline).
With CC[n+]1cccc2cc(/C=N/NC(=O)c3cccc(C(=O)N/N=C/c4ccc5c(ccc[n+]5CC)c4)c3)ccc21 the ΔTm was 3.4 ± 0.2 °C (MYC parallel G4 DNA; FRET melting; 1 µM, DNA 0.2 µM, with: duplex DNA competitor 10 µM).
COC1OC(C)C(OC2OC(C)C(OS(=O)(=O)O)C(OC3OC(C)C(OC4OC(C)C(OS(=O)(=O)O)C(OC5OC(C)C(OC6OC(C)C(OS(=O)(=O)O)C(OC7OC(C)C(OC8OC(C)C(OS(=O)(=O)O)C(OC9OC(C)C(OC%10OC(C)C(OS(=O)(=O)O)C(OC%11OC(C)C(OS(=O)(=O)O)C(OS(=O)(=O)O)C%11O)C%10O)C(OS(=O)(=O)O)C9O)C8O)C(OS(=O)(=O)O)C7O)C6O)C(OS(=O)(=O)O)C5O)C4O)C(OS(=O)(=O)O)C3O)C2O)C(OS(=O)(=O)O)C1O (stereo not shown) has a prothrombin time of 14.8 ± 0.4 s (human plasma; 128 µg/mL).
C=CC(=O)Nc1cccc(Cn2ncc3cnc(Nc4cnn(CCOC)c4)nc32)c1: “percent of control” 100% (ERBB3 human; binding, KINOMEscan; 100 nM; lower = stronger binding).
Nc1ncc(-c2cc(-c3cnn(CC(F)(F)F)c3)ncc2F)nc1C(=O)NC1CNCC(F)C1 (stereo not shown) has a remaining binding of 81% (MRCKB; KINOMEscan competition binding; 1 µM; baseline: DMSO control).
Under “log2 fold change”, Cc1ncsc1-c1ccc(C(C)NC(=O)C2CC(O)CN2C(=O)C(NC(=O)CCCCCCCCCCN2CCCC(Nc3ncc(Cl)c(Nc4ccccc4S(=O)(=O)C(C)C)n3)C2)C(C)(C)C)cc1 (stereo not shown) is recorded as -2.2 (22Rv1; RNA-seq, measured: ZNF485 mRNA; concentration not given; baseline: DMSO).
For O=C(N/N=C/c1cc[n+](CC2CC2)c2ccccc12)c1cccc(C(=O)N/N=C/c2cc[n+](CC3CC3)c3ccccc23)c1, the ΔTm was 6.4 ± 0.1 °C (MYC parallel G4 DNA; FRET melting; 1 µM, DNA 0.2 µM).
CN1CCCNC(=O)c2cccc(c2)C(=O)NCCCN(C)CCCNc2cccc3c2C(=O)c2cccc(c2C3=O)NCCC1 — result for “log2 fold change”: 4.39 (SAS; RNA-seq, measured: C8orf37-AS1 mRNA; 1 µM, 6 h; baseline: untreated cells).
For O=C(NN1C(=O)c2ccccc2NC1c1ccc([N+](=O)[O-])o1)c1ccc([N+](=O)[O-])cc1 (stereo not shown), the AC50 was 39.8 µM (Mus musculus; gene silencing, high-content imaging; LDR reporter GFP cells; retest run 2).
O=C(N/N=C/c1ccc(C[n+]2ccccc2)cc1)c1cccc(C(=O)N/N=C/c2ccc(C[n+]3ccccc3)cc2)n1 has a ΔTm of 4.5 ± 0.3 °C (MYC parallel G4 DNA; FRET melting; 1 µM, DNA 0.2 µM, with: duplex DNA competitor 10 µM).
For Cc1ccc(/C=N/N=C(\S)Nc2cccc(S(=O)(=O)N(C)C)c2)o1, the Emax was 34% (Mus musculus; gene silencing, high-content imaging; LDR reporter GFP cells; 30 h, confirmation, mean of two runs).
The ΔTm of O=C(N/N=C/c1ccc2c(ccc[n+]2Cc2ccccc2)c1)c1ccc2ccc3ccc(C(=O)N/N=C/c4ccc5c(ccc[n+]5Cc5ccccc5)c4)nc3c2n1 is reported as 16.6 ± 2.3 °C (MYC parallel G4 DNA; FRET melting; 1 µM, DNA 0.2 µM).
With COc1ccc(NC(=O)CSc2nc3c(oc4ccccc43)c(=O)n2Cc2ccco2)cc1Cl the Emax was 62% (Mus musculus; gene silencing, high-content imaging; LDR reporter GFP cells; 30 h, retest, mean of two runs).
C=C(NC(=O)c1csc(-c2nc3c(cc2O)-c2nc(cs2)C(=O)NC(C(C)O)C(=O)NC(=C(C)OC)c2nc(cs2)C(=O)NC2c4nc(cs4)C(=O)NC(COC(=O)c4c5c6c(cccc6n4O)COC(=O)C(OC4CC(C)(O)C(N(C)C)C(C)O4)C2OC5)c2nc-3cs2)n1)C(N)=O (stereo not shown) has an MIC50 of 0.0312 µg/mL (≈ 0.0217 µM) (Enterococcus faecalis; vancomycin-intermediate, 10 isolates; pH 7.0).

Repeated from above:
Under “log2 fold change”, Cc1ncsc1-c1ccc(C(C)NC(=O)C2CC(O)CN2C(=O)C(NC(=O)CCCCCCCCCCN2CCCC(Nc3ncc(Cl)c(Nc4ccccc4S(=O)(=O)C(C)C)n3)C2)C(C)(C)C)cc1 (stereo not shown) is recorded as -2.2 (22Rv1; RNA-seq, measured: ZNF485 mRNA; concentration not given; baseline: DMSO).
COC1OC(C)C(OC2OC(C)C(OS(=O)(=O)O)C(OC3OC(C)C(OC4OC(C)C(OS(=O)(=O)O)C(OC5OC(C)C(OC6OC(C)C(OS(=O)(=O)O)C(OC7OC(C)C(OC8OC(C)C(OS(=O)(=O)O)C(OC9OC(C)C(OC%10OC(C)C(OS(=O)(=O)O)C(OC%11OC(C)C(OS(=O)(=O)O)C(OS(=O)(=O)O)C%11O)C%10O)C(OS(=O)(=O)O)C9O)C8O)C(OS(=O)(=O)O)C7O)C6O)C(OS(=O)(=O)O)C5O)C4O)C(OS(=O)(=O)O)C3O)C2O)C(OS(=O)(=O)O)C1O (stereo not shown) has a prothrombin time of 14.8 ± 0.4 s (human plasma; 128 µg/mL).
